Measurements of several laboratories.
Each line is one published result; not all experiments were run side by side. ± marks the error that the study gave. In brackets after ≈: the same amount, converted by molar mass.

SMILES	assay	system	conditions	scale	endpoint	result
Cc1ccc(C(=O)NCc2c3c(c(C)[nH]c2=O)CCCC3)cn1	U-HPLC	20% DMSO in water			kinetic solubility	184 µg/mL (≈ 591 µM)
N=C(N)NC(=O)c1cnn(-c2cccc3ncccc23)c1C1CC1		cynomolgus monkey male, hepatic S9	1 µM, pH 7.4, with: without NADPH		CLint	55.3 ± 1.63 mL/min/kg
CC(C)C[C@@H]1NC(=O)[C@H](C)NC(=O)[C@H](Cc2ccccc2)NCc2ccc([nH]2)CNC1=O		PAMPA	100 µM, 17 h, pH 6.4		Papp	0.0191 ×10⁻⁶ cm/s
Cc1cnc(NC(=O)C2=C(O)c3ccccc3S(=O)(=O)N2C)s1		Sprague-Dawley rat, male, liver	oral, 12 mg/kg, 6 h, single high dose	direction not given	hepatocyte vacuolization score	0
C[C@]12CC[C@@H]3c4ccc(O)cc4CC[C@H]3[C@@H]1C[C@@H](O)[C@@H]2O	GC-MS	breast cancer women on NSAI, serum	vaginal, 0.03 mg daily, 3 h, day 28		mean serum concentration	2.48 pg/mL
CC(C)C[C@H](NC(=O)[C@H](CCCNC(=N)N)NC(=O)[C@H](CC(N)=O)NC(=O)[C@H](CC(=O)O)NC(=O)[C@H](CCCNC(=N)N)NC(=O)CNC(=O)CNC(=O)CNC(=S)Nc1ccc(C[C@H]2CN(CC(=O)O)CCN(CC(=O)O)CCN2CC(=O)O)cc1)C(=O)N[C@@H](CC(N)=O)C(=O)N[C@H](C(=O)NCC(=O)NCC(=O)N[C@H](C(=O)N[C@@H](Cc1ccc(O)cc1)C(=O)N[C@@H](Cc1ccccc1)C(=O)N[C@@H](CC(C)C)C(=O)N[C@H](C(=O)N[C@H](C(=O)N[C@@H](CCCNC(=N)N)C(=O)N[C@@H](CCC(N)=O)C(=O)O)[C@@H](C)O)[C@@H](C)O)[C@@H](C)O)C(C)C	reverse-phase HPLC				HPLC retention time	13.5 min
NC(=O)OCC(COC(N)=O)c1ccccc1		Sprague-Dawley rat, male, liver	oral, 300 mg/kg, 6 h, single low dose	direction not given	hepatocyte vacuolization score	0
CN1CC[C@@H](NC(=O)Nc2ccc(C#N)cc2)C[C@@H]1c1nc2ccccc2[nH]1		human, moderate hepatic impairment, fasted, plasma	oral, 100 mg single dose, geometric mean, fu × total		unbound Cmax	73.6 ng/mL
CN[C@H](CC(C)C)C(=O)N[C@H]1C(=O)N[C@@H](CC(N)=O)C(=O)N[C@H]2C(=O)N[C@H]3C(=O)N[C@H](C(=O)N[C@H](C(=O)O)c4cc(O)cc(O)c4-c4cc3ccc4O)[C@H](O)c3ccc(c(Cl)c3)Oc3cc2cc(c3O[C@@H]2O[C@H](CO)[C@@H](O)[C@H](O)[C@H]2O[C@H]2C[C@](C)(N)[C@H](O)[C@H](C)O2)Oc2ccc(cc2Cl)[C@H]1O	microdialysis	pig, Danish Landrace, cortical bone	intravenous, 1000 mg over 100 min, 450 min dosing interval, with: 4.0 µg/mL MIC	relative to: dosing interval	time above MIC	7%
N=C(N)NCCC[C@H](N)C(=O)N1CCC[C@H]1C(=O)N1CCC[C@H]1C(=O)NCC(=O)N[C@@H](Cc1ccccc1)C(=O)N[C@@H](CO)C(=O)N1CCC[C@H]1C(=O)N[C@@H](Cc1ccccc1)C(=O)O	LC-MS/MS	human serum	concentration not given, 4 h, room temperature, tube without gel separator	relative to: initial concentration	change in serum concentration	-87.1 ± 5%
CC[C@H](C)[C@@H]1NC(=O)[C@H](Cc2ccc(O)cc2)NC(=O)[C@@H](N)CSSC[C@@H](C(=O)N2CCC[C@H]2C(=O)N[C@@H](CC(C)C)C(=O)NCC(N)=O)NC(=O)[C@H](CC(N)=O)NC(=O)[C@H](CCC(N)=O)NC1=O	microdialysis, radioimmunoassay	C57BL/6J male mice, wild type, amygdala extracellular fluid	intraperitoneal, 12 µg total, time to half of Cmax		half-life	18.9 ± 4.7 min
CC(=O)N[C@@H](CCCCN)C(=O)N[C@@H](CCCCN)C(=O)N[C@@H](CCCNC(=N)N)C(=O)N[C@@H](Cc1ccc(O)cc1)C(=O)N[C@@H](CO)C(=O)N[C@@H](CCCNC(=N)N)C(=O)N[C@@H](CCC(=O)O)C(=O)N[C@@H](CCC(N)=O)C(=O)N[C@@H](CC(C)C)C(=O)N[C@@H](CC(C)C)C(=O)NCC(=O)N[C@@H](CC(C)C)C(N)=O	CD spectroscopy	sodium phosphate buffer	25 to 100 µM, pH 7.4, 25 °C		helicity	2.2%
O=c1ccn([C@@H]2O[C@H](CO)[C@@H](O)[C@H]2O)c(=O)[nH]1	UHPLC-MS	male CD-1 mice, plasma	intravenous, 1 mg/kg, from 4 h postdose		terminal half-life	732 min
CCCC[C@H](NC(C)=O)C(=O)N[C@H]1CCC(=O)NC[C@@H](C(=O)N[C@@H](Cc2c[nH]c3ccccc23)C(N)=O)NC(=O)[C@H](CCCNC(=N)N)NC(=O)[C@@H](Cc2ccccc2)NC(=O)[C@H](Cc2c[nH]cn2)NC1=O		beagle dog, male, plasma	subcutaneous, 1.5 mg/kg daily, day 1		AUC(0-last)	247 ng·h/mL
Cc1ccc(-c2ncc(Cl)cc2-c2ccc(S(C)(=O)=O)cc2)cn1		hip replacement patients, CSF	oral, 120 mg at 0 h and 24 h, subgroup		AUC(0-48 h)	2900 ng·h/mL
CCCC[C@@H]1NC(=O)[C@@H](NC(=O)[C@H](CCC(=O)O)NC(=O)CNC(=O)CN2CCN(CC(=O)O)CCN(CC(=O)O)CCN(CC(=O)O)CC2)CCCCNC(=O)C[C@@H](C(N)=O)NC(=O)[C@H](C(C)C)NC(=O)[C@@H]2CCCN2C(=O)[C@H](CCCNC(=N)N)NC(=O)CNC(=O)[C@H](Cc2c[nH]c3ccccc23)NC(=O)[C@H](CCCNC(=N)N)NC(=O)[C@@H](Cc2ccccc2)NC(=O)[C@H](Cc2c[nH]cn2)NC(=O)[C@H](CCC(=O)O)NC1=O [indium-111 labelled]		normal C57 mice, brain	intravenous, 0.037 MBq, 4 h		tissue uptake	0.01 ± 0.01 %ID/g
O=C(O)/C=C/c1ccccc1		rat plasma QC sample	1 ng/mL nominal, 24 h, low QC level autosampler stability		measured concentration	1.06 ± 0.09 ng/mL
COc1ccc(-c2cc(=O)c3c(O)c(OC)c(OC)c(OC)c3o2)cc1OC		C57BL/6 mouse, male, colon	oral, 1% w/w in diet, 6 weeks, orange peel extract diet	relative to: content in orange peel	tissue to peel content ratio	1.89%

SMILES	assay	system	conditions	scale	endpoint	result
Cc1ccc2[nH]c(=O)c(CC(=O)O)c(-c3ccccc3)c2c1	potentiometric, initial protocol		neutral species		logP	3.97
COc1ccc(-c2oc3c(OC)c(OC)cc(O)c3c(=O)c2OC)cc1OC		C57BL/6 mouse, male, feces	oral, 1% w/w in diet, 6 weeks, orange peel extract diet	relative to: content in orange peel	tissue to peel content ratio	224%
CN(C)C(=O)c1cc2cnc(Nc3ccc(N4CCNCC4)cn3)nc2n1C1CCCC1		Japanese cancer patients, plasma	oral, 600 mg, steady state, no proton pump inhibitor, geometric mean		AUC(0-24h)	55100 ng·h/mL
C[C@H]1Oc2cc(cnc2N)-c2c(nn(C)c2C#N)CN(C)C(=O)c2ccc(F)cc21		human (NSCLC and healthy)	oral, 100 mg, PopPK, steady state		maximum induced clearance	241 mL/min
C#C[C@]1(CO)O[C@@H](n2cnc3c(N)nc(F)nc32)C[C@@H]1O		human, plasma	oral, 200 mg, single dose, fasted		AUC(0-inf)	25.6 µM·h
CCN(CC)CCNC(=O)c1c(C)[nH]c(/C=C2\C(=O)Nc3ccc(F)cc32)c1C		human, plasma	oral, 20 mg/m2, day 21		minimum trough plasma concentration	24.2 ng/mL
O=C(c1ccc(OCCN2CCCCC2)cc1)c1c(-c2ccc(O)cc2)sc2cc(O)ccc12		healthy humans, plasma	oral, 60 mg, with: water		AUC(0-48 h)	0.0112 µM·h
COc1cccc(-c2ccc(NC(=O)C3=C(C(=O)O)CCC3)c(F)c2)c1		male healthy human, plasma	oral, 50 mg daily, day 13-14, not pre-dosed	relative to: day 0-1	AUC(0-24) accumulation ratio	2.49
CC(C)=CCC[C@](C)(O[C@@H]1O[C@H](CO)[C@@H](O)[C@H](O)[C@H]1O)[C@H]1CC[C@]2(C)[C@@H]1[C@H](O)C[C@@H]1[C@@]3(C)CC[C@H](O)C(C)(C)[C@@H]3[C@@H](O[C@@H]3O[C@H](CO)[C@@H](O)[C@H](O)[C@H]3O[C@@H]3O[C@@H](C)[C@H](O)[C@@H](O)[C@H]3O)C[C@]12C		rat, extracted plasma QC samples	0.5 µg/mL, 24 h, 15 °C, autosampler		post-preparative stability accuracy	95.7 ± 6%
CN1CCN(C(=O)[C@@H](N)CSSC[C@H](N)C(=O)N2CCN(C)CC2)CC1.Cl.Cl.Cl.Cl		wild-type mice, male, urine	oral gavage, 29.3 µmol/kg daily for 1 week, 4 h after last dose		concentration in urine	2.1 ± 0.57 µM
COc1cccc(N2CCN(C3=Nc4c(F)cccc4[C@H](CC(=O)O)N3c3cc(C(F)(F)F)ccc3OC)CC2)c1		healthy women, plasma	intravenous, 240 mg once daily, day 14, 30-min infusion		terminal elimination rate constant	1.04e-05 ± 6.11e-06 s⁻¹
COc1ccc(C[C@@H](C)[C@@H](C)Cc2ccc(OC)c(OC)c2)cc1OC		human patients	oral, all dose levels, fed or fasted		maximum AUC	< 5000 ng·h/mL
NCCCC[C@@H]1NC(=O)[C@@H](Cc2c[nH]c3ccccc23)NC(=O)[C@H](c2ccccc2)NC(=O)[C@@H]2C[C@@H](OC(=O)NCCN)CN2C(=O)[C@H](Cc2ccccc2)NC(=O)[C@H](Cc2ccc(OCc3ccccc3)cc2)NC1=O	radioimmunoassay	healthy human male volunteers, plasma	subcutaneous, 300 µg		beta half-life	10.7 ± 1 h
COc1cc(/C=C/C(=O)CC(=O)/C=C/c2ccc(O)c(OC)c2)ccc1O	I-125 label	C57BL/6J mouse, cerebral cortex	intranasal vs intraperitoneal, 10 µg/mouse IN, 100 µg/mouse IP, 24 h	relative to: intranasal over intraperitoneal	brain uptake ratio	2.21
Cc1cc(Nc2ccc(S(F)(F)(F)(F)F)cc2)n2nc(C(C)(F)F)nc2n1		malaria patients, plasma	oral, 250 to 800 mg, single dose		terminal t1/2	3.75 to 4.79 days
Cc1cc(-c2ccn3c(-c4ccc(CC(=O)Nc5cccc(C(F)(F)F)c5)c(F)c4)cnc3c2)ccn1		human, plasma	oral, 50 mg once daily, multiple doses		Tlast	8 h
Nc1ccn([C@@H]2O[C@H](CO)[C@@H](O)C2(F)F)c(=O)n1		THU-treated rat plasma	3200.00 ng/mL, 2 months, -80 °C, frozen storage, high QC		measured concentration	3195 ± 15.4 ng/mL

Some of these lines once more:
SMILES	assay	system	conditions	scale	endpoint	result
C#C[C@]1(CO)O[C@@H](n2cnc3c(N)nc(F)nc32)C[C@@H]1O		human, plasma	oral, 200 mg, single dose, fasted		AUC(0-inf)	25.6 µM·h
CCN(CC)CCNC(=O)c1c(C)[nH]c(/C=C2\C(=O)Nc3ccc(F)cc32)c1C		human, plasma	oral, 20 mg/m2, day 21		minimum trough plasma concentration	24.2 ng/mL
O=C(c1ccc(OCCN2CCCCC2)cc1)c1c(-c2ccc(O)cc2)sc2cc(O)ccc12		healthy humans, plasma	oral, 60 mg, with: water		AUC(0-48 h)	0.0112 µM·h
COc1cccc(-c2ccc(NC(=O)C3=C(C(=O)O)CCC3)c(F)c2)c1		male healthy human, plasma	oral, 50 mg daily, day 13-14, not pre-dosed	relative to: day 0-1	AUC(0-24) accumulation ratio	2.49
CC(C)=CCC[C@](C)(O[C@@H]1O[C@H](CO)[C@@H](O)[C@H](O)[C@H]1O)[C@H]1CC[C@]2(C)[C@@H]1[C@H](O)C[C@@H]1[C@@]3(C)CC[C@H](O)C(C)(C)[C@@H]3[C@@H](O[C@@H]3O[C@H](CO)[C@@H](O)[C@H](O)[C@H]3O[C@@H]3O[C@@H](C)[C@H](O)[C@@H](O)[C@H]3O)C[C@]12C		rat, extracted plasma QC samples	0.5 µg/mL, 24 h, 15 °C, autosampler		post-preparative stability accuracy	95.7 ± 6%
CN1CCN(C(=O)[C@@H](N)CSSC[C@H](N)C(=O)N2CCN(C)CC2)CC1.Cl.Cl.Cl.Cl		wild-type mice, male, urine	oral gavage, 29.3 µmol/kg daily for 1 week, 4 h after last dose		concentration in urine	2.1 ± 0.57 µM
